Results from different studies.
Every numbered part comes from another study and shows a few of its results, in no order. Positions count from the first letter of the parent shown.

Series 1 — method: protein-binding microarray; molecule type: double-stranded DNA, one strand shown; medium: in vitro; tested at: not given; reading: higher = stronger binding
Target: Protein C-ets-1 (ETS1, Homo sapiens, UniProt P14921, residues 1-441, K379A, full length assumed)
Notes: k-mer, scored over probes, only values ≥0.25
Residues (chain): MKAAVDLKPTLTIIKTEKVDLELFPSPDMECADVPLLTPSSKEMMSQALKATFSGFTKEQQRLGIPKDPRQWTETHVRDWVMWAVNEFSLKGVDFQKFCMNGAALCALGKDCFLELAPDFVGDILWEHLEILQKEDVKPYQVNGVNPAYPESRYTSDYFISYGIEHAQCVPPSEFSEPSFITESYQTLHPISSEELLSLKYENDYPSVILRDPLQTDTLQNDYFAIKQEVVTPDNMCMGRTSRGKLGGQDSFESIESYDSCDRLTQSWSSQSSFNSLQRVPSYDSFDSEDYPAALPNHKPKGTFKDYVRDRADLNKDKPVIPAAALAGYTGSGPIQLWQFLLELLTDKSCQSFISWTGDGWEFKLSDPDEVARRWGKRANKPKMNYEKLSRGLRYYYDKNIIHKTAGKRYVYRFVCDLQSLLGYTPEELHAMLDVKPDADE
Sequence | E-score
AGACCGGG | 0.423
CGGTAGTA | 0.294
GCCGGCAA | 0.327
CCCGCCAC | 0.269
TAACCGGA | 0.38
AAGCCGGT | 0.269
CCGACAGA | 0.313
GTAGGACA | 0.262
GCGTTGTA | 0.29
AAACGACG | 0.303
AAGTATGT | 0.288
ACACCCGG | 0.308
AATTACGT | 0.258
ACAACAAC | 0.263
ACCGACCA | 0.295
CCACGACG | 0.26
AGTATACG | 0.263
CGGTCTGA | 0.276
TACAGTAA | 0.287
AAATACCG | 0.364
ACCTATAT | 0.295
AACTACCA | 0.278
ACCGGCAG | 0.367
GGTATACA | 0.272
CCGGTACA | 0.406

Series 2 — target: CCNB3, cyclin fold, Cln2 fusion (human); method: yeast growth competition, sequencing; medium: yeast; notes: weak parent motif; reference: not given; reading: higher = stronger binding
Starting sequence: AKAP12 docking peptide (human); GSPLKKLFTSTGL
Variant | normalised enrichment score
S2A | 0.495
L4A | 0.201
P3A | 0.37
L13A | 0.243
K5R F8L | 0.0474
F8A | 0.204
K6A | -0.0345

Series 3 — method: DHFR PCA, deep sequencing; medium: yeast; together with: (+)-ABA 2500 µM; reference: wild-type fitted maximum; reading: higher = stronger binding
Target: ABI1, truncated, D143A, DHFR fusion (Arabidopsis thaliana)
Notes: methotrexate growth selection, single substitutions
Starting sequence: PYL1, truncated, DHFR fusion (Arabidopsis thaliana); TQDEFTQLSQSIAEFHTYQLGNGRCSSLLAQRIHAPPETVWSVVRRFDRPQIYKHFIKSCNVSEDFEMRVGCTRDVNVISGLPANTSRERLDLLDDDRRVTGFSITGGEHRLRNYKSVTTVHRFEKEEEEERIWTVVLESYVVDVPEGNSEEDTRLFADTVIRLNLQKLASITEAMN
Variant | relative binding score [%]
S117Y | 2.47
D65R | 94.7
T135N | 22.2
S171P | 56.2
S63G | 97.1
V43L | 101
G102Y | -2.15
V40G | -7.59
L164P | 45.9
S63Y | 90.5
F157N | 2.57
G81L | 42.7
N85R | 97.7
D144T | 90.5
E151F | 93.1
H16R | 53.5

Series 4 — method: protein binding microarray; molecule type: double-stranded DNA, one strand shown; medium: in vitro; tested at: not given; reference: not given; reading: higher = stronger binding
Target: Histone acetyltransferase KAT6A, winged helix 2, GST fusion (KAT6A, Homo sapiens, UniProt Q92794, residues 85-181)
Notes: 8-mer, flanks averaged, mean of 2 arrays, mostly near background
Residues (chain): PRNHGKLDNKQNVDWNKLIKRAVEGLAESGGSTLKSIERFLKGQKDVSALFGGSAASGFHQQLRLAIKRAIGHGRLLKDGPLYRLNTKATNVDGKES
Sequence | E-score
ACCAGGCG | 0.135
GCACTACC | -0.0254
AAAGATCC | 0.0186
GCAGCATA | 0.102
ATAATTCC | -0.024
ACATATTG | -0.0252
ATGTCCAC | -0.0521
CTATTGCC | -0.144
ACTATGCT | 0.0855
ATCCACCA | -0.106
ATATTGAG | -0.00137
ATCCCTCC | 0.0927
GCAAGAAA | 0.16
GAACAACC | -0.0329
ATGAGCCA | -0.088
AAAAACAA | 0.0542
GCAAGTTA | 0.0962
ACGGTAAA | -0.294
GCTAATTA | 0.0151

A few entries again (series 4):
Sequence | E-score
CTATTGCC | -0.144
ATCCACCA | -0.106
GAACAACC | -0.0329
ACATATTG | -0.0252
AAAGATCC | 0.0186
GCTAATTA | 0.0151
GCAGCATA | 0.102
AAAAACAA | 0.0542
ACTATGCT | 0.0855
GCACTACC | -0.0254
ACCAGGCG | 0.135
